Published values from different studies.
Compare with care: the assays were run in different laboratories. Numbers after ± are the reported error.

| SMILES | cell line | assay | setting | how to read | endpoint | value |
| --- | --- | --- | --- | --- | --- | --- |
| CCn1cc(-c2cc(Cn3ccnc3)cc3c2CCN([C@H](c2cc(OC)ccn2)C2CC2)C3=O)c(C(F)(F)F)n1 | C3A | cell growth, inhibitor | 120 h |  | EC50 | 2.75 µM |
| Cn1cc(-c2ccc(-c3cncc(Cl)c3N3CCC4(CCNC4=O)CC3)cc2)cn1 | COLO 205 | gene expression, microarray, refers to: POU2AF1 (BOB1) mRNA | concentration not given, 6 h | baseline: untreated cells | log2 fold change | -4.11 |
| CC1(C)CCC(CN2CCN(c3ccc(C(=O)NS(=O)(=O)c4ccc(NCC5CCOCC5)c([N+](=O)[O-])c4)c(Oc4cnc5[nH]ccc5c4)c3)CC2)=C(c2ccc(Cl)cc2)C1 | THP-1 | annexin V/PI flow cytometry, refers to: annexin V+/PI- | 3.2 µM, 24 h |  | early apoptotic cells | 9.8% |
| CCn1cc(-c2cc(Cn3ccoc3=N)cc3c2CCN([C@@H](C)c2cc(OC)ccn2)C3=O)c(C(F)(F)F)n1 | JHH6 | cell growth | 120 h |  | EC50 | 7.27 µM |
| [Cl-].[Cl-].[Os+2].c1cnc2c(c1)ccc1cccnc12.c1cnc2c(c1)ccc1cccnc12.c1cnc2c(c1)ccc1cccnc12 | SK-MEL-28 | cell growth, SRB | dark, normoxia |  | GI50 | 125 µM |
| COc1cnc2cccc(N3CCc4c(cc(Cn5ccnc5C)cc4-c4cn(C)nc4C(F)(F)F)C3=O)c2c1 | JHOM1 | cell growth | 120 h |  | EC50 | > 30 µM |
| C=CCn1c(=O)c2cnc(Nc3ccc(N4CCN(C)CC4)cc3)nc2n1-c1ccc2c(n1)[C@@](O)(CC)CC2 | MDA-MB-231 | flow cytometry, refers to: pHH3-γH2Ax+ | concentration not given |  | G2/M cells in subpopulation | 8.5% |
| CC/C(=N\NC(=O)NCc1cccc(O)c1)c1ccc(O)c(C)c1O | SK-OV-3 | Western blot, refers to: phospho-YAP | 10 µM, 3 h, 2D culture, unit not given | baseline: total YAP | protein level | 0.24 ± 0.04 |
| Cc1cc(Nc2ncc(Cl)c(Nc3ccccc3S(=O)(=O)C(C)C)n2)c(OC(C)C)cc1C1CCNCC1 | CLB-GE | phosphoproteomics LC-MS/MS, refers to: MAPK1 phosphorylation | 200 nM, 60 min | baseline: untreated | log2 fold change | -1.6 |
| CCCCc1nc(Cl)c(CO)n1Cc1ccc(-c2ccccc2-c2nn[nH]n2)cc1 | human PBMC | RNA-seq, refers to: CCM2L mRNA | 10 µg/mL, 24 h | baseline: untreated control | log2 fold change | 2.83 |
| CC(C)NCC(O)c1ccc(O)c(O)c1 (stereo not shown) | mouse ventricular cardiomyocytes |  | dose not given, 0.059 s |  | sarcomere length | 1.8 µm |
| COc1cc2ncnc(Nc3ccc(Oc4ccccc4)c(C)c3C)c2cc1OC | LoVo (KRAS G13D) | resazurin | 0.1 µM, 72 h, added: trametinib 0 nM |  | viability | 90.4% |
| O=C(/C=C/C=C/C=C/C1CCCCC1)NC1=C[C@@](O)(/C=C/C=C/C=C/C(=O)NC2=C(O)CCC2=O)[C@@H]2O[C@@H]2C1=O | NCI-H2171 | cell growth, CellTiter-Glo | 78 h |  | GI50 | 17.5 µM |

For quick reference, copied from above:
| SMILES | cell line | assay | setting | how to read | endpoint | value |
| --- | --- | --- | --- | --- | --- | --- |
| CCn1cc(-c2cc(Cn3ccoc3=N)cc3c2CCN([C@@H](C)c2cc(OC)ccn2)C3=O)c(C(F)(F)F)n1 | JHH6 | cell growth | 120 h |  | EC50 | 7.27 µM |
